Experimental data from different studies.
Protocols differ between the studies behind these lines. “And” joins repeats or separate records; there may be more than shown. ± marks the error that the study gave.

| Compound | tested on | assay | test system | conditions | scale | measurement | result |
| --- | --- | --- | --- | --- | --- | --- | --- |
| COc1cc2ncnc(Nc3cccc(Cl)c3)c2cc1OC | HaCaT |  |  | 0.137 µM, 60 h |  | viability | 99% and 103% and 98% |
| CC(=O)N1CCC(C(=O)N2CCN3C(=O)c4cc(-c5ccccc5)ccc4NC(=O)C3C2)CC1 (stereo not drawn) | Salmonella typhimurium |  | TA98 | 5.0 µg/plate | baseline: vehicle | fold increase in revertants | 1.1 |
| COc1cc2c(Oc3ccc4[nH]c(C)cc4c3F)ccnc2cc1OCC1(N)CC1 |  |  | paediatric recurrent refractory sarcoma | concentration not given, whole group |  | grade 1 or 2 TBIL elevation | 0% |
| OC(CCN1CC=C(c2ccc(F)cc2)CC1)c1ccc(F)c2ccccc12 (stereo not drawn) | Salmonella typhimurium | genotoxicity, SOS/umu test | TA1535/pSK1002 | 0.008 mg/mL, 4 h, with S9, full range |  | induction factor | 1.1 |
| O=C1c2ccccc2C(=O)c2ccccc21 | HepaRG co-cultured with HK-2 | MTT |  | 266.67 µM, 48 h | baseline: untreated control | cell viability | 24.3 ± 4.19% |
| COc1cccc(-c2n[nH]c(SCc3ccccn3)n2)c1OC | Salmonella typhimurium | Ames test, preincubation | TA1537 | 1.0 mg/plate, with rat liver S9 |  | revertant colonies per plate | 7 |
| CCc1ccc(CC/C=C/c2ccc3c(c2)C(=O)CC3)cc1 |  |  | Sprague-Dawley rat, female | oral, 450 mg/kg/day, 14 days |  | AST serum activity | 115 U/L |
| C[C@]1(CO)Cc2ncn(-c3ccc(C#N)c(Cl)c3)c2C(=O)O1 |  | measured: abnormal skin odour | human | 20 mg multiple doses, fasted |  | subjects with drug-related TEAE | 0% |
| COc1ccc2c(c1OC)C(=O)c1c(cc(C)c(O)c1OC)C2=O | HK-2 co-cultured with HepaRG | MTT |  | 66.67 µM, 24 h | baseline: untreated control | cell viability | 79.6 ± 9.01% |
| CO[C@H]1C[C@@H]2CC[C@@H](C)[C@@](O)(O2)C(=O)C(=O)N2CCCC[C@H]2C(=O)O[C@H]([C@H](C)C[C@@H]2CC[C@@H](OC(=O)NCCOCCOCCOCCOCCOCCOCCOCCOCCC(=O)N3CCc4cc(Cn5nc(-c6ccc7oc(N)nc7c6)c6c(N)ncnc65)ccc4C3)[C@H](OC)C2)C[C@@H](O)[C@H](C)/C=C(\C)[C@@H](O)[C@@H](OC)C(=O)[C@H](C)C[C@H](C)/C=C/C=C/C=C/1C |  |  | patients with advanced solid tumours | intravenous, 1.6 mg/3 mg weekly, any grade |  | Mucositis AE leading to dose reduction | 0% |
| [Cl-].[Cl-].[Pt+2].[Ru+2].c1ccc(-c2nc3cc4ccccc4cc3nc2-c2ccccn2)nc1.c1cnc2c(c1)ccc1cccnc12.c1cnc2c(c1)ccc1cccnc12 | Danio rerio |  | embryos | 30 µM, 72 h |  | hatching rate | 46.7 ± 4.6% |
| Cc1cc2c(c(O)c1O)C(=O)c1c(O)cc(O)cc1C2=O | HK-2 co-cultured with HepaRG | MTT |  | 66.67 µM, 48 h | baseline: untreated control | cell viability | 97.8 ± 15.5% |

A few entries again:
| Compound | tested on | assay | test system | conditions | scale | measurement | result |
| --- | --- | --- | --- | --- | --- | --- | --- |
| Cc1cc2c(c(O)c1O)C(=O)c1c(O)cc(O)cc1C2=O | HK-2 co-cultured with HepaRG | MTT |  | 66.67 µM, 48 h | baseline: untreated control | cell viability | 97.8 ± 15.5% |
| C[C@]1(CO)Cc2ncn(-c3ccc(C#N)c(Cl)c3)c2C(=O)O1 |  | measured: abnormal skin odour | human | 20 mg multiple doses, fasted |  | subjects with drug-related TEAE | 0% |
